# Assay results gathered from unrelated publications.
# Numbered parts are unrelated; each lists some results of a single study.
# Sequence of UniProt Q9UPE1 (whole entry, looked up): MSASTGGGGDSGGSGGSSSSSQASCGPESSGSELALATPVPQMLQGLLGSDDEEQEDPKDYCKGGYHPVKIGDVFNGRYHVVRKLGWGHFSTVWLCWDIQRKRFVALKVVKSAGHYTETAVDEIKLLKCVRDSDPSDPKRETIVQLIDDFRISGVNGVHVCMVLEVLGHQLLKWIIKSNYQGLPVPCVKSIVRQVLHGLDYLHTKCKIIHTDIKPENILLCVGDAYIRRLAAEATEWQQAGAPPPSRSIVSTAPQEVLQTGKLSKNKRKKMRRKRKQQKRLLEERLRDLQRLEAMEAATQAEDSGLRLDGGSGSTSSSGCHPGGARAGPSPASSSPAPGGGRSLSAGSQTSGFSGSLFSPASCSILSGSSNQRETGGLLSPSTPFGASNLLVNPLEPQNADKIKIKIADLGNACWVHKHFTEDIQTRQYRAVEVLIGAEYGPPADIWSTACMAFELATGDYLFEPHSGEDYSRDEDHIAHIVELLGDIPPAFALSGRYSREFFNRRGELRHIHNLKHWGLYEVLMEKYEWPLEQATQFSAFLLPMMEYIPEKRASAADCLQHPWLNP
# Sequence of UniProt P22455 (whole entry, looked up): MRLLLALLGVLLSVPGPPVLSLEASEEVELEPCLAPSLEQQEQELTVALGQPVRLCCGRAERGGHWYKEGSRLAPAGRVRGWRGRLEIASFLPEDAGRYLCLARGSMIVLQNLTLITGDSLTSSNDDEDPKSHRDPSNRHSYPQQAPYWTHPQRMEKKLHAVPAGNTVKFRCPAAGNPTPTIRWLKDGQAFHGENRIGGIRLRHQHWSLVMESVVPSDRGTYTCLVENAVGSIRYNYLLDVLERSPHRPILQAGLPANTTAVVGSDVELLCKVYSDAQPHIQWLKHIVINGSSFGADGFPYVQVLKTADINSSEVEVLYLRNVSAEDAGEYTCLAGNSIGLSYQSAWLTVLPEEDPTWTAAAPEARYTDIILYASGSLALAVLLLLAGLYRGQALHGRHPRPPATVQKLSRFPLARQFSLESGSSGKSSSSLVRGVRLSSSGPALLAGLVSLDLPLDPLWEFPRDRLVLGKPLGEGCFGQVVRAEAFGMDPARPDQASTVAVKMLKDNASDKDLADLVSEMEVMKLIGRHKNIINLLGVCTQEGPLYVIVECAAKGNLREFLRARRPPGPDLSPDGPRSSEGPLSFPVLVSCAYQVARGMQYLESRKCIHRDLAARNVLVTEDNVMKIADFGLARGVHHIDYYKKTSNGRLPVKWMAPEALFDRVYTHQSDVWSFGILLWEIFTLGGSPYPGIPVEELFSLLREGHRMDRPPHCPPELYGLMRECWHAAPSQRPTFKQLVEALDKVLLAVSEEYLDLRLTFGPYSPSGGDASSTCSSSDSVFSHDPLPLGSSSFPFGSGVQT
# Sequence of UniProt Q04912 (whole entry, looked up): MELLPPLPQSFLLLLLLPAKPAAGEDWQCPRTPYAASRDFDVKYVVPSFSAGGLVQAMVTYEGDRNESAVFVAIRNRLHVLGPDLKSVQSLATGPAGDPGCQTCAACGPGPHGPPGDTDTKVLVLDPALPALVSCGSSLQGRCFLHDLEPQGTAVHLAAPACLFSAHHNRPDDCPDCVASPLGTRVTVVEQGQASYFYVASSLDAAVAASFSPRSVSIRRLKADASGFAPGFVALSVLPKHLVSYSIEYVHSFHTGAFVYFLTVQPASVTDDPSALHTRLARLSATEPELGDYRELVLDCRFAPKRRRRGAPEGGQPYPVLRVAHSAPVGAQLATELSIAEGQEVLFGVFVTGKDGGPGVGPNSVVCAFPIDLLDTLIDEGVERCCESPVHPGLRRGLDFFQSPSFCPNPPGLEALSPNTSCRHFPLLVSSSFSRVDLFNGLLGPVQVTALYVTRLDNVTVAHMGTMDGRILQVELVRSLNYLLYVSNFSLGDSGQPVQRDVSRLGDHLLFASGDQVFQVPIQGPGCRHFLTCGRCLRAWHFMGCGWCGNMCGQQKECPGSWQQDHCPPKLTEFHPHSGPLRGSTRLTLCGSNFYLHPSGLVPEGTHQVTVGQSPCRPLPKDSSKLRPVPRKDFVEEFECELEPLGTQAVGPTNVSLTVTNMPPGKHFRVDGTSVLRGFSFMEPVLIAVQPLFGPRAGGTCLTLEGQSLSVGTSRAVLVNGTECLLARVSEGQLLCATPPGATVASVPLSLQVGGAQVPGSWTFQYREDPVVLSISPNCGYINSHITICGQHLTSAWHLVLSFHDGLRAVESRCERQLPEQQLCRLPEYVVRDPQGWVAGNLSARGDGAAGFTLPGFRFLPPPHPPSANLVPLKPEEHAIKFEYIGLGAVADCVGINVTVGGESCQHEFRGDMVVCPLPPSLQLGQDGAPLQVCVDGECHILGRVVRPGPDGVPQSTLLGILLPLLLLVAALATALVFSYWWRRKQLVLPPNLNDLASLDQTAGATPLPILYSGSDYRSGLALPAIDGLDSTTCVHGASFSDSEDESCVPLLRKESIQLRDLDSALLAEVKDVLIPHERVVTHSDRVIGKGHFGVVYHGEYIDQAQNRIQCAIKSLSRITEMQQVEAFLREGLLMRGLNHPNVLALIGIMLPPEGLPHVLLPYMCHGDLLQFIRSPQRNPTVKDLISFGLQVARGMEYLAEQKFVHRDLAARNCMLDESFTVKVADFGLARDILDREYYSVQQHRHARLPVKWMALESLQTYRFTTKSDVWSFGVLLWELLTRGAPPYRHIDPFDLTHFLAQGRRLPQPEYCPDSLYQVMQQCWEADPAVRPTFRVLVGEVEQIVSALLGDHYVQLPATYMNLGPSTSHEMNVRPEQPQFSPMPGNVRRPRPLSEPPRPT
# Sequence of UniProt Q8NEB9 (whole entry, looked up): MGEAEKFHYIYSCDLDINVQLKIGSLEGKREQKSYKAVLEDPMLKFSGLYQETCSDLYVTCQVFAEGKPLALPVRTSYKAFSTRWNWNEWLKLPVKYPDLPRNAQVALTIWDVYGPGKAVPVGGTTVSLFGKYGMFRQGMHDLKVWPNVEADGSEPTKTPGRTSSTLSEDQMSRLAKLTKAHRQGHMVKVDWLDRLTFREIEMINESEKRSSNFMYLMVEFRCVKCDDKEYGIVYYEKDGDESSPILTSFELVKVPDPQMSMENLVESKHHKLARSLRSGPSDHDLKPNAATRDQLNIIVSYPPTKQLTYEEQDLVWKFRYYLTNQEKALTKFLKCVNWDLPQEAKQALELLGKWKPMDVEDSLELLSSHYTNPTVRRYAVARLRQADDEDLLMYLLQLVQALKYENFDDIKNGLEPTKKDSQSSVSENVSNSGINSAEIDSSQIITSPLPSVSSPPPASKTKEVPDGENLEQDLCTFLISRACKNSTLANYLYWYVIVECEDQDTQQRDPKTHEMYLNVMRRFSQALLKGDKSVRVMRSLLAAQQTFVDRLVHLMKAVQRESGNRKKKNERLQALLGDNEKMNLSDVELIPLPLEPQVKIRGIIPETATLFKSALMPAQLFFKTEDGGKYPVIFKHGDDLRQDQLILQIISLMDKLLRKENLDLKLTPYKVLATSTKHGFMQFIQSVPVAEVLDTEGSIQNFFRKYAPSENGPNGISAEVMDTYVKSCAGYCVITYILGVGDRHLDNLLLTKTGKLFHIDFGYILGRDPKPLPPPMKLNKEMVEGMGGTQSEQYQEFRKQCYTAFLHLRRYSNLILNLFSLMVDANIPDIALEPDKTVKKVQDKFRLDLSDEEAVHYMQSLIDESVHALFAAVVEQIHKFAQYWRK
# Sequence of UniProt Q9NQU5 (whole entry, looked up): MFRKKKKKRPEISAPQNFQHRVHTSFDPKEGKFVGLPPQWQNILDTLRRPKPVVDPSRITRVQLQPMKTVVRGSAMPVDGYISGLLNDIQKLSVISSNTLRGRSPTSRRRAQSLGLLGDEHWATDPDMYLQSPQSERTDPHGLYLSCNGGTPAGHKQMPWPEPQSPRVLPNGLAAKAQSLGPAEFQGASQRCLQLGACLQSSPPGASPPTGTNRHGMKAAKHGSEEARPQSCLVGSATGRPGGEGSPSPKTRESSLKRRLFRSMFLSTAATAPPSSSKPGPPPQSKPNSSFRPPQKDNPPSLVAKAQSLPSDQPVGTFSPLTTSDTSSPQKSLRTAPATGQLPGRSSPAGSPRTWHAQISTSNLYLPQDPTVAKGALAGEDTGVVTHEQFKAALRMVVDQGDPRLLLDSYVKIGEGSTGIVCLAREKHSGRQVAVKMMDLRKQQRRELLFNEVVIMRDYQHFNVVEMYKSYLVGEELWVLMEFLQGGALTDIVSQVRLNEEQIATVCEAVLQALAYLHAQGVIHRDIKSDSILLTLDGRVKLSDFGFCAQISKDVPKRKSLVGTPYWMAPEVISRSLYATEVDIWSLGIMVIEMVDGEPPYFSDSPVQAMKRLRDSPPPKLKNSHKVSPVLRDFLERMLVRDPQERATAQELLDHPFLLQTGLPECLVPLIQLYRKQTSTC
# Sequence of UniProt O75716 (whole entry, looked up): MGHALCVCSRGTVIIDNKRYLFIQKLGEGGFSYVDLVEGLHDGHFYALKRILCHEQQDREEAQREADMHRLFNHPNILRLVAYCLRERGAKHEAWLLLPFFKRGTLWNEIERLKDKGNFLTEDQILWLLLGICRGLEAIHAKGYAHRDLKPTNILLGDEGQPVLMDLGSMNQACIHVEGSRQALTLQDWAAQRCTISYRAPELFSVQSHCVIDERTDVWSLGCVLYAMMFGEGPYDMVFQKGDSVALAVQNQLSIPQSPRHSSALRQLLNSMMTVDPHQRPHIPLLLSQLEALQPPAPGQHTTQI

# Sample 1
# Species: human
# Medium: microsomes or S9
# Concentration: 2 µM
# Time: 0.5 h
Compound,remaining compound [%]
Cc1nnc2c3ccccc3nc(-c3ccccc3Cl)n12,80.4
CC1Cc2cc(-c3ccc(C#N)c(O)n3)ccc2O1 (centres unmarked),71.3
CN(c1ccccc1)c1ncnc2c([C@H]3O[C@@H](COCc4ccccc4)[C@H](OCc4ccccc4)[C@@H]3OCc3ccccc3)cnn12,0.095

# Sample 2
# SMILES: COc1ccc2c(c1)O[C@@H](c1ccc(OC)c(OC)c1)C[C@H]2NC(=O)C1(c2ccc3c(c2)OC(F)(F)O3)CC1
# Technique: competition with immobilised ligand
# Concentration: 1 µM
target,read-out,remaining binding [%]
"NTRK2 (Homo sapiens, UniProt Q16620)",cell-free assay,91
"MAP2K2 (Homo sapiens, UniProt P36507)",cell-free assay,87
"LRRK2 (Homo sapiens, UniProt Q5S007, G2019S)",cell-free assay,90
"KIT (Homo sapiens, UniProt P10721, D816V)",cell-free assay,92
"MST1R (Homo sapiens, UniProt Q04912)",cell-free assay,94
"PIK3C2B (Homo sapiens, UniProt O00750)",cell-free assay,96
"NTRK3 (Homo sapiens, UniProt Q16288)",cell-free assay,83
"CAMK2D (Homo sapiens, UniProt Q13557)",cell-free assay,91
"PIK3C3 (Homo sapiens, UniProt Q8NEB9)",cell-free assay,78
"CSNK1G3 (Homo sapiens, UniProt Q9Y6M4)",cell-free assay,100
"EPHA4 (Homo sapiens, UniProt P54764)",cell-free assay,100
"FGFR4 (Homo sapiens, UniProt P22455)",cell-free assay,90
"SRPK3 (Homo sapiens, UniProt Q9UPE1)",cell-free assay,100
"PAK6 (Homo sapiens, UniProt Q9NQU5)",cell-free assay,79
"ERBB3 (Homo sapiens, UniProt P21860)",cell-free assay,86
"CAMK1G (Homo sapiens, UniProt Q96NX5)",cell-free assay,84
"SGK3 (Homo sapiens, UniProt Q96BR1)",cell-free assay,84
"BMPR1A (Homo sapiens, UniProt P36894)",binding,92
"TNK2 (Homo sapiens, UniProt Q07912)",cell-free assay,100
"STK16 (Homo sapiens, UniProt O75716)",cell-free assay,81
"TTK (Homo sapiens, UniProt P33981)",cell-free assay,100
"CDK11B (Homo sapiens, UniProt P21127)",cell-free assay,100

# Sample 3
# Target: Sal-like protein 4, full length isoform B (SALL4, Homo sapiens, UniProt Q9UJQ4-2, residues 1-616)
# Technique: universal PBM
# Form: double-stranded DNA, one strand shown
# Medium: in vitro
# Concentration: not given
# Notes: 8-mer, flanks averaged, mean of replicates
# Direction: higher = stronger binding
Oligonucleotide,E-score
CAATATCG,0.152
CAGCACGC,-0.159
GCATATCC,0.094
CGGTTAAC,-0.114
CCGGCACG,-0.247
AAACACGG,-0.0483
CACATGGG,-0.279
CGTGAACG,-0.154

# Sample 4
# Cell line: HaCaT
# Concentration: 100 µM
# Time: 36 h
SMILES,viability [%]
O=C(OC[C@H]1O[C@@H](OC(=O)c2cc(O)c(O)c(OC(=O)c3cc(O)c(O)c(O)c3)c2)[C@H](OC(=O)c2cc(O)c(O)c(OC(=O)c3cc(O)c(O)c(O)c3)c2)[C@@H](OC(=O)c2cc(O)c(O)c(OC(=O)c3cc(O)c(O)c(O)c3)c2)[C@@H]1OC(=O)c1cc(O)c(O)c(OC(=O)c2cc(O)c(O)c(O)c2)c1)c1cc(O)c(O)c(OC(=O)c2cc(O)c(O)c(O)c2)c1,26.8
CCCCC1=NC2(CCCC2)C(=O)N1Cc1ccc(-c2ccccc2-c2nnn[nH]2)cc1,91.4
CCOc1ccc2nc3cc(N)ccc3c(N)c2c1,5.61

# Sample 5
# Target: TAR DNA-binding protein 43, full length, His tag (TARDBP, Homo sapiens, UniProt Q13148, residues 1-414)
# Technique: RNA Bind-n-Seq
# Form: RNA
# Medium: in vitro
# Concentration: 20 nM
# Notes: 6-mer, flanks averaged, single round
# With: 150 mM LiCl
# Baseline: input library
# Direction: higher = stronger binding
Oligonucleotide,6-mer enrichment (R)
UUAACU,0.914
AAUGAC,0.829
GUGCUC,0.94
UAGCAG,0.936
GAACCG,0.902
GAUGAU,0.971
CUUCGU,0.88
CGCGUA,0.937

# Sample 6
# Compound: CC(=O)N[C@@H](Cc1c[nH]c2ccccc12)C(=O)N[C@@H](CCC(=O)C=[N+]=[N-])C(=O)OC(C)C
# Medium: EL4 tumour
# Dose: dose not given
# Baseline: vehicle
item,species,log2 fold change
cystine,"mouse, EL4 tumour-bearing",2.24
N-acetylneuraminate,"mouse, EL4 tumour-bearing",-0.0639
dimethylarginine (ADMA + SDMA),Mus musculus,0.197

# Further values, each from its own experiment
# Nfkb1 Rel homology region: Nuclear factor NF-kappa-B p105 subunit, Rel homology region (Nfkb1, Mus musculus, UniProt P25799, residues 1-429)
# Sequence of UniProt P25799 (1-429, looked up): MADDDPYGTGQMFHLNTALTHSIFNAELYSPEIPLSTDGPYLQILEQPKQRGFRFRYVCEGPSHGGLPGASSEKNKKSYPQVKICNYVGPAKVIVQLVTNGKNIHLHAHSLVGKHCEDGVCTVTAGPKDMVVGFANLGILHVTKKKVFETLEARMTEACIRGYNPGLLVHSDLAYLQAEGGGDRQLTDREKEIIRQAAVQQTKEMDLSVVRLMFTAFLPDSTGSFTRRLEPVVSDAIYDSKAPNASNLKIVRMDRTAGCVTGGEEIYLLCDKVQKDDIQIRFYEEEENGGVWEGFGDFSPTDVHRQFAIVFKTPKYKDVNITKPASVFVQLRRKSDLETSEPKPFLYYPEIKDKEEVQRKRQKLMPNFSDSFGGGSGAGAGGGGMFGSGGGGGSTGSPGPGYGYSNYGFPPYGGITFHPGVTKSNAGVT
Substance,tested on,test,test system,conditions,how to read,measurement,result
GGGGGGAGTA,Nfkb1 Rel homology region,surface plasmon resonance,"double-stranded DNA, one strand shown, in vitro","1 nM to 1 µM, 10-bp κB site, 1:1 kinetic fit, 10 °C",higher = slower dissociation,dissociation half-life,91 s
C[C@@H](c1ncncc1F)[C@](O)(Cn1cncn1)c1ccc(F)cc1F,Sarcocystis neurona,parasite growth,,"10 µM, secondary screen",,inhibition,-23.6%
AGGAATTCCA,Nfkb1 Rel homology region,surface plasmon resonance,"double-stranded DNA, one strand shown, in vitro","1 nM to 1 µM, 10-bp κB site, 1:1 kinetic fit, 10 °C",higher = slower dissociation,dissociation half-life,9 s

# A few entries again (sample 2):
target,read-out,remaining binding [%]
"ERBB3 (Homo sapiens, UniProt P21860)",cell-free assay,86
"STK16 (Homo sapiens, UniProt O75716)",cell-free assay,81
"FGFR4 (Homo sapiens, UniProt P22455)",cell-free assay,90
"KIT (Homo sapiens, UniProt P10721, D816V)",cell-free assay,92
"CDK11B (Homo sapiens, UniProt P21127)",cell-free assay,100
"PAK6 (Homo sapiens, UniProt Q9NQU5)",cell-free assay,79
"PIK3C3 (Homo sapiens, UniProt Q8NEB9)",cell-free assay,78
"TTK (Homo sapiens, UniProt P33981)",cell-free assay,100
